Measurements collected from several papers.
Parts stem from different laboratories: compare values within a part only. Positions count from the first letter of the parent shown.

Sample 1
Target: RNA binding protein fox-1 homolog 2, RRM domain, GST-SBP tag (RBFOX2, Homo sapiens, UniProt O43251-10, residues 100-194)
Technique: RNA Bind-n-Seq
Molecule type: RNA
Matrix: in vitro
Tested at: 365 nM
Notes: natural RNA segment, single round, ends assumed
Relative to: no-protein control
Reading: higher = stronger binding
All sequences stand within: GGGAGUUCUACAGUCCGACGAUC … UGGAAUUCUCGGGUGCCAA
Target sequence (chain): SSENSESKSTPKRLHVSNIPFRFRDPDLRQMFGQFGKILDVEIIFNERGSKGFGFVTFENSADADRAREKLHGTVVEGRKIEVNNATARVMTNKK
| Oligonucleotide | RBNS enrichment (R) |
| --- | --- |
| UUGAAUAAUCAUGUGCUUAGUCCCUUGGAUUACUGCCACAUCAGUUUAACACGAUAUCAGCACAUUCCCUUGUCAUCAUCAAGGUGUUGGCUCAGAUUUAUUCUUAAUUG | 0.281 |
| CAAGCCCUACUGCCAGCCCUGCUUCCUGAAGCUCUUCGGCUGACAGCCCGCUCGGCUCGCCCUCUCCCCCGGAGGCCGCGCCCUCCCGGAAAAGCCGGGUCCUCCAGACC | 0.143 |
| AGUAGGCAUCUAAAGAAUAUAAAGCCUCAAAUCUUCCUUACUGUCUCUCUUGUCACAUGGAAUCUACAUGUGUUUGAACUAUUGCUUUAGGGUUUAAAAUAGGGGAGCCU | 0.365 |
| GGAGAAUUGCCGGGAGUACAAAGUCAACCGGAGCUAAAUAAUAUCAGCCACCAGGACUACAUAACGAAAGAUUGCCACAGAGGAAAGGAAGGAAGAAAAAGCCAGCAAUC | 0.479 |
| GGGCUUUUUUAGGUUUUGGGGCAUUUGUUUUUUGUAAAUAAGAUGAUUAUGCUUUGUGGCUAUCCAUCAACAUAAGUAAAAAAAAAAAAAAAACACUUCAACUCCCUCCC | 0.455 |
| AUGUAUAUAGAAUCUCCAUAUUAAAGAAAUAUUCAUAAUCAGAAAGCUUGAAUAUUGUUUUUGCACCAGAGGAGAAGUGAGGAAAUUCGGAGCUAUACGUGUGUGCAGAG | 1.11 |
| CUGUAUAUUGAGGGUUCCAUUCUUCGCGCAGUUUAGACAUCUCUGUUUUGAUUCUUUGUUGUUGUUUUUAUUUUAAAAGGCACAAACUCUAGAUAUUAGUUGAAUGUUGA | 0.605 |
| ACCCUGUUUUAUAAACCUGUGCCUGUCUAUGGAGAAGGUUUUAAUUCUCCUUGUUAUUCAUUUUGGGCUUUUUGAUGAAACCACCAGGGCAUCACAUAUACUAAGCAUGU | 7.23 |
| AUCUUUUUAGCACUAAGGAAUUUGAUUUCAGCCUUCCAGCUGUUGCUGUGAGUUGUUCCAGACCUUUCUGUGGCUUUUUGGUAAGGCUGCUUAGAAGCAUGAGAAGCAUG | 3.18 |
| UCGGCCGGUCAGGGCCCGCAGCCUCGCCCCAUCCACUCCGGUGCCUCCAUUUAGCUGGCCAAUCAGCCCAGGAGGGGCAGGUUCCCCGGGGCCGGCGCUAGGAUUUGCAC | 0.344 |
| CACGCUCACCCGCUUCAGUGCGGCUCUGUCCCUGCUGCCGCCUCCAGUCCUGAGGGAGGGGCUUGCCCCACCUUCUACAUUCCAAUUUUUAUAUCUUUGAAUUAUGUGAU | 0.189 |
| UCCCAACCCCUUUCUGUUAAAGCCUCCUAAGUGGUCAUUACUACUUUGUAGACAUUGGUAUUUGUUUUACUUAGCAAUAAGAAUGGUGAAAUUCAAAUUCUCGUUUAGAA | 0.519 |

Sample 2
Target: Prothrombin, mature alpha-thrombin (F2, Homo sapiens, UniProt P00734)
Technique: aptamer microarray, sandwich
Molecule type: DNA with 2'F-ANA
Matrix: in vitro
Tested at: 200 nM
Notes: whole 15-mer aptamer, many near background
Together with: Cy3 exosite-II aptamer, 400 nM
Reading: higher = stronger binding
Oligonucleotide: GGTTGGTGTGGTTGG
| Modification | mean fluorescence intensity [a.u.] |
| --- | --- |
| 2'F-ANA at 1 3 6 7 8 10 11 13 | 126 |
| 2'F-ANA at 2 4 5 6 8 9 11 12 14 | 46.8 |
| 2'F-ANA at 2 4 8 9 10 | 95.4 |
| 2'F-ANA at 5 7 10 11 12 13 14 15 | 61.5 |
| 2'F-ANA at 2 5 7 10 11 13 14 15 | 50.1 |
| 2'F-ANA at 2 4 11 12 | 491 |
| 2'F-ANA at 1 2 4 5 7 8 9 11 13 14 | 83.9 |
| 2'F-ANA at 2 5 6 7 9 13 | 127 |
| 2'F-ANA at 1 2 6 7 9 10 11 12 15 | 61.3 |
| 2'F-ANA at 1 4 5 8 9 10 12 13 14 | 47.3 |
| 2'F-ANA at 2 5 7 9 14 15 | 51.1 |
| 2'F-ANA at 5 12 13 14 15 | 48.3 |
| 2'F-ANA at 2 4 5 8 12 14 15 | 46.7 |
| 2'F-ANA at 1 5 6 7 9 11 12 13 14 15 | 49.4 |
| 2'F-ANA at 1 2 3 5 6 8 9 11 12 13 | 107 |
| 2'F-ANA at 1 3 6 8 10 15 | 83.1 |
| 2'F-ANA at 2 3 4 8 9 10 12 13 | 248 |
| 2'F-ANA at 5 8 9 12 | 187 |
| 2'F-ANA at 4 8 9 15 | 354 |
| 2'F-ANA at 2 3 6 8 9 12 14 | 472 |
| 2'F-ANA at 2 4 6 7 11 15 | 227 |
| 2'F-ANA at 2 3 4 6 7 8 11 13 15 | 364 |
| 2'F-ANA at 1 5 7 8 9 12 | 128 |
| 2'F-ANA at 2 5 6 7 8 9 14 | 136 |
| 2'F-ANA at 1 3 4 8 9 10 11 12 14 15 | 52.7 |

Sample 3
Target: XBP1, bZIP domain (human)
Technique: DHFR protein complementation
Matrix: yeast
Notes: single substitutions, most at no-binding floor
Relative to: wild-type JUN-FOS pair
Reading: higher = stronger binding
Starting sequence: JUN, bZIP domain (human); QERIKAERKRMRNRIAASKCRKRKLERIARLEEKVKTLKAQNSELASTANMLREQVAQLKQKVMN; partner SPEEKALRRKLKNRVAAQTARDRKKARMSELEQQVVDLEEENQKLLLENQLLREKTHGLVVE
| Substitution | binding fitness [natural log] |
| --- | --- |
| R30W | -0.255 |
| A49V | -1 |
| E33V | -1.34 |
| S47A | -0.334 |
| L45M | -1.39 |
| A40Y | -1.29 |
| L59P | -0.832 |
| Q41T | -1.17 |
| S47Y | -0.9 |
| M51Y | -0.623 |
| Q41H | -0.915 |
| L38A | -1.56 |
| L45A | -1.47 |
| I28W | -1.22 |
| E54G | -1.14 |
| A40Q | -0.464 |
| A40W | -1.36 |
| S47H | -0.514 |
| Q55D | -1.38 |
| A40P | -1.53 |
| Q41A | -0.795 |
| Q41K | -0.812 |
| T37K | -0.755 |
| T48E | -0.456 |
| K34V | -1.16 |

Sample 4
Target: Ras GTPase-activating protein-binding protein 1, RRM domain (G3BP1, Homo sapiens, UniProt Q13283)
Sequence of UniProt Q13283 (whole entry, looked up): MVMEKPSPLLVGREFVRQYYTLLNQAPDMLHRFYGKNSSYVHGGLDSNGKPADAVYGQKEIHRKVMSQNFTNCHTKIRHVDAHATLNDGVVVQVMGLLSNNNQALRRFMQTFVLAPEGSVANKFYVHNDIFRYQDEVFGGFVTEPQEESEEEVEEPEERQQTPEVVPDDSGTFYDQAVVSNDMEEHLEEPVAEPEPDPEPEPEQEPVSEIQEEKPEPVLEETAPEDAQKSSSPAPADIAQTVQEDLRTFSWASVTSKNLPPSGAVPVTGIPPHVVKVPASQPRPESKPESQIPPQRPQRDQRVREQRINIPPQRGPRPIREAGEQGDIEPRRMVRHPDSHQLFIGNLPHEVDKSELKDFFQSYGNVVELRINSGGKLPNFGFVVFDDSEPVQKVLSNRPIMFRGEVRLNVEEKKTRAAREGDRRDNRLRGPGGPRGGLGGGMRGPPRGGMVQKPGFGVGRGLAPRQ
Technique: RNA Bind-n-Seq
Molecule type: RNA
Matrix: in vitro
Tested at: 1 µM
Notes: whole 134-nt RNA, ends assumed
Together with: 150 mM KCl
Relative to: input library
Reading: higher = stronger binding
All sequences stand within: GGGAGUUCUACAGUCCGACGAUC … UGGAAUUCUCGGGUGUCAAGG
| Oligonucleotide | log2 enrichment |
| --- | --- |
| AAGUCCUGUGCUACACAUCGUAUGUACCGAAUCGGGGAGGGGAGGGGAAAAAGGGGAAAGUAUUAUGUUACGCCGUUCGGAUCUGCACUU | 0.814 |
| CACAGACAACACGCACCCACACAGACACAGAGGGAAGGGGUUGGGAUGGGGACAGGGUGCACAGCAGGGCGGGGUAGGACCCCAGACCCU | -0.558 |
| UAACUUUAGAGGAGGAUCUGAUGGAUAUGGCCGUGGACGUGGAUUUGGGGAUGGCUAUAAUGGGUAUGGAGGAGGACCUGGAGGUGGCAA | -0.699 |
| GCAGGAAGUAAAAACAAAUGGAAAUGCUUCGGAUAGUGGCAGGGGUGGGGGUUGCUAAGGAAAGGGUGGCAUGGGAGUGGGUAAAGAGUU | 1.21 |
| AAGUCCUGUGCUACACAUCGUAUGUACCGAAUCGGGUUUUGGUUUUGGGGUUUUGGGAAAGUAUUAUGUUACGCCGUUCGGAUCUGCACU | -0.0171 |
| GUCCUGUGCUACACAUCGUAUGUACCGAAUCGGGGUGGGGAAAAAAAGGGGAAAGGGGAAAGUAUUAUGUUACGCCGUUCGGAUCUGCAC | 1.28 |
| CACAGACAACACGCACCCACACAGACACAGGGGGAAGGGGUUGGGAUGGGGACAGGGUGCACAGCAGGGCGGGGUAGGACCCCAGCCCCU | -0.0405 |
| UUUUCAAAAUAAGGAGCUUCCCAGACCUGUGUUAGAAGGGCAGCAGUCAGAGAGGACCCCAAAUAAUCGCCCUGAUGCCCCUAAGGAGAA | -0.133 |
| UCCUCAAGUCCUGUGCUACACAUCGUAUGUACCGAAUCGGCGGCGGGGCGGGAAAGUAUUAUGUUACGCCGUUCGGAUCUGCACUUCCAG | -0.219 |
| CUGUGCUACACAUCGUAUGUACCGAAUCGGGCCCCCCCGGCCCCCCCGGGGCCCCCCCGGGGAAAGUAUUAUGUUACGCCGUUCGGAUCU | -0.52 |
| GUCCUGUGCUACACAUCGUAUGUACCGAAUCGGGGUUUUUUUGGGGUGGGGUUUGGGGAAAGUAUUAUGUUACGCCGUUCGGAUCUGCAC | 0.916 |
| UUCUCUAAGAGGAACUCCGGCGCGUCAGAGUAACAGAAGCGAGAGCACAGACAGUCUUGGGGGCUUGUCUCCCUCUGAAGUCACAGCCAU | -0.0465 |
| CUCAAGUCCUGUGCUACACAUCGUAUGUACCGAAUCGGGAGGGGAGGGGAGGGAAAGUAUUAUGUUACGCCGUUCGGAUCUGCACUUCCA | 0.846 |
| UCCUGUGCUACACAUCGUAUGUACCGAAUCGGGAAAAAGGGUUUUUUUGGGUUUUUGGGAAAGUAUUAUGUUACGCCGUUCGGAUCUGCA | -0.241 |
